Literature values as cited in several papers.
Lines come from different studies, so protocols differ.
UniProt Q15418, sequence (whole entry, looked up): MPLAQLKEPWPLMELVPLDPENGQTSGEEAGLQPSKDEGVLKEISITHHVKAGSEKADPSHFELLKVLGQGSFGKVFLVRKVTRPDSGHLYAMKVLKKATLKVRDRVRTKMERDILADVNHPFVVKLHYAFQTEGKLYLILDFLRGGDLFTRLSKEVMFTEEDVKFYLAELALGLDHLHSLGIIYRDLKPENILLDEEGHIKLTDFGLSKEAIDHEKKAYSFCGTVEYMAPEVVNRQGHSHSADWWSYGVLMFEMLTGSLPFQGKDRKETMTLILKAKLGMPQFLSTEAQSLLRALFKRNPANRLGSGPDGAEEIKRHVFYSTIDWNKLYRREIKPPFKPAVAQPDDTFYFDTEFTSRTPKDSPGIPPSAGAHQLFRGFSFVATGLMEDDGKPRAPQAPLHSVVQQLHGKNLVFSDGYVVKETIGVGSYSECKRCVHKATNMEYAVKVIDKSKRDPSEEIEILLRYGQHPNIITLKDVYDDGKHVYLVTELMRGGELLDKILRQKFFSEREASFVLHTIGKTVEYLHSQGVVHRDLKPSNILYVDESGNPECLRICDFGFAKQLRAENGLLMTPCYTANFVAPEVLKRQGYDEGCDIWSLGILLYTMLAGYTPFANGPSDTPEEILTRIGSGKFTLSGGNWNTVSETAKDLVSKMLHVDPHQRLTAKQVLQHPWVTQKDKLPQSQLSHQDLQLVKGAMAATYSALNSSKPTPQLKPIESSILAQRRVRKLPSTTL

`Cc1ncc([N+](=O)[O-])n1CCO` — result for “fraction excreted in faeces”: 6 to 15% (human; together with: radiolabelled compound).
For `Nc1cc(C(F)(F)F)c(-c2nc(N3CCOCC3)nc(N3CCOCC3)n2)cn1`, the remaining activity was 86% (Ribosomal protein S6 kinase alpha-1, C-terminal kinase domain (RPS6KA1, Homo sapiens, UniProt Q15418); enzyme activity; 10 µM; reference: untreated).
For `CC(C)(C)c1cc(C(C)(C)C)c(NC(=O)c2c[nH]c3ccccc3c2=O)cc1O`, “gut wall elimination, fraction escaping” read 0.5 (human).
With `C=CC[C@@H]1/C=C(\C)C[C@H](C)C[C@H](OC)[C@H]2O[C@@](O)(C(=O)C(=O)N3CCCC[C@H]3C(=O)O[C@H](/C(C)=C/[C@@H]3CC[C@@H](O)[C@H](OC)C3)[C@H](C)[C@@H](O)CC1=O)[C@H](C)C[C@@H]2OC` the fraction metabolized was 0.33 (measured: CYP3A4; human).
`CN1CCC(COc2cnc(-c3cccc(Cn4nc(-c5cccc(C#N)c5)ccc4=O)c3)nc2)CC1` gave a fraction absorbed of ~85% (human).
`CN(C)CCc1c[nH]c2ccc(C[C@H]3COC(=O)N3)cc12` has a fraction absorbed of 50% (human).
`CC(C)(CO)c1cc2cc(NC(=O)C3(c4ccc5c(c4)OC(F)(F)O5)CC3)c(F)cc2n1C[C@@H](O)CO` has a fraction unbound of 0.009 (human, plasma).
For `C[C@@H](O)[C@H]1C(=O)N2C(C(=O)O)=C(SCCN=CN)C[C@H]12`, “fraction excreted in urine” read 43% (human patients).
The fraction absorbed of `CC(C)NCC(O)COc1ccc(CC(N)=O)cc1` (centres unmarked) is reported as 56% (human).
With `Cc1ccc(NC(=O)c2ccc(CN3CCN(C)CC3)cc2)cc1Nc1nc(-c2cccnc2)cs1` the fraction absorbed was 0.8 (human).
`CN(C)C(=N)N=C(N)N` has a fraction absorbed of 86% (human).
`Cc1nn(C)cc1S(=O)(=O)NC(=O)c1ccc(-n2ccc(OCC(C)(C)C(F)(F)F)n2)nc1N1C[C@@H](C)CC1(C)C` gave a fraction absorbed of 0.82 (human).
With `CNS(=O)(=O)Cc1ccc2[nH]cc(CCN(C)C)c2c1` the fraction absorbed was 57% (human).
For `N#Cc1ccc(C(c2ccc(C#N)cc2)n2cncn2)cc1`, the fraction unbound was 0.6 (human, plasma; estimated).

Repeated from above:
The fraction absorbed of `CC(C)NCC(O)COc1ccc(CC(N)=O)cc1` (centres unmarked) is reported as 56% (human).
`CN(C)CCc1c[nH]c2ccc(C[C@H]3COC(=O)N3)cc12` has a fraction absorbed of 50% (human).
